Measured values from different studies.
Numbered parts are unrelated; each lists some results of a single study. Substitutions count along the parent as printed.

Sample 1
Target: Interferon regulatory factor 5, full length, phosphomimetic (IRF5, Homo sapiens, UniProt Q13568-2, residues 1-514, S451D/S453D/S456D/S462D)
Technique: protein-binding microarray
Molecule type: double-stranded DNA, one strand shown
Medium: in vitro
Concentration: 940 nM top
Notes: 60-bp whole probe
Added: salmon DNA 0.4 mg/ml
Baseline: random background probes
Direction: higher = stronger binding
Shared flanks, not repeated: GCCTAGCAC … GTCTTGATTCGCTTGACGCTGCTG
Strand | fitted relative affinity [z-score]
TTAGGACTGCTTGTCCTTTAGTGCTAG | -0.628
TCACTTCTGCCTGTCCAACTGTGCTAG | 0.757
TTAGGACTGGGGACTGGGATAGTGCTA | -0.385
ATAGATATCAGACTGGATTAGTGCTAG | -0.222
GACGATTTCGGGACGGGAGACGTGCTA | 0.308
TGGGACCAGCACAGACAGTCGTGCTAG | -1.09
TCAGTTCTAAATATCTTACTGTGCTAG | 0.559
GACGGTCTCCTCATCCTGACGTGCTAG | 0.0897
TTAGGTATCGGTATCGGATAGTGCTAG | 10.7

Sample 2
Target: ABI1, truncated, D143A, DHFR fusion (Arabidopsis thaliana)
Technique: DHFR PCA, deep sequencing
Medium: yeast
Notes: methotrexate growth selection, single substitutions
Added: (+)-ABA 0 µM
Baseline: wild-type fitted maximum
Direction: higher = stronger binding
Starting sequence: PYL1, truncated, DHFR fusion (Arabidopsis thaliana); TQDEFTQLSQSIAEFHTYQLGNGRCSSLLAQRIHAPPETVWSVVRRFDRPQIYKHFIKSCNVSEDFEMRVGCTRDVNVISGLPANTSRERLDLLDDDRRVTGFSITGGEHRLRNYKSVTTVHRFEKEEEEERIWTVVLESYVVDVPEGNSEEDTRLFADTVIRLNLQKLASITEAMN
Substitution | relative binding score
M68R | -0.692%
A175H | 9.88%
Q2I | 68.6%
V121S | 2.42%
R155W | 1.32%
E130Y | 4.73%
E125V | 38.8%

Sample 3
Target: Histone acetyltransferase KAT6A, winged helix 2, GST fusion (KAT6A, Homo sapiens, UniProt Q92794, residues 85-181)
Technique: protein binding microarray
Molecule type: double-stranded DNA, one strand shown
Medium: in vitro
Concentration: not given
Notes: 8-mer, flanks averaged, mean of 2 arrays, mostly near background
Baseline: not given
Direction: higher = stronger binding
Residues (chain): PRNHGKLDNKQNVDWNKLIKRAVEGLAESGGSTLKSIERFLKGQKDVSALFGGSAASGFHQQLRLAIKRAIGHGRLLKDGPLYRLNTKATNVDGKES
Strand | E-score
CCGAATAA | 0.0851
CCACAAAC | 0.203
AATTGAGG | -0.00877
CGGTCCGC | 0.16
TCTCCACA | 0.00585
CACCACTG | -0.0185
AGCAATTG | 0.0622

Mixed results
Substance | target | assay | system | conditions | how to read | quantity | result
PhoQ, residues 284 288 289 292 302 303 ASVMEA | PhoP, residues 12 14 15 18 19 NQGLL (Escherichia coli, UniProt P23836) | Sort-seq, item: YFP reporter | E. coli | PhoQ-PhoP variant library, added: 10 µM Mg2+ | baseline: high Mg2+ state, higher = stronger signaling | fold induction | 4.21

For quick reference, copied from above (sample 2):
Substitution | relative binding score
M68R | -0.692%
Q2I | 68.6%
